Measured values of several laboratories.
Numbered parts are unrelated; each lists some results of a single study. Several values in a cell are separate wells, animals, samples, runs or records.
UniProt P42680, sequence (whole entry, looked up): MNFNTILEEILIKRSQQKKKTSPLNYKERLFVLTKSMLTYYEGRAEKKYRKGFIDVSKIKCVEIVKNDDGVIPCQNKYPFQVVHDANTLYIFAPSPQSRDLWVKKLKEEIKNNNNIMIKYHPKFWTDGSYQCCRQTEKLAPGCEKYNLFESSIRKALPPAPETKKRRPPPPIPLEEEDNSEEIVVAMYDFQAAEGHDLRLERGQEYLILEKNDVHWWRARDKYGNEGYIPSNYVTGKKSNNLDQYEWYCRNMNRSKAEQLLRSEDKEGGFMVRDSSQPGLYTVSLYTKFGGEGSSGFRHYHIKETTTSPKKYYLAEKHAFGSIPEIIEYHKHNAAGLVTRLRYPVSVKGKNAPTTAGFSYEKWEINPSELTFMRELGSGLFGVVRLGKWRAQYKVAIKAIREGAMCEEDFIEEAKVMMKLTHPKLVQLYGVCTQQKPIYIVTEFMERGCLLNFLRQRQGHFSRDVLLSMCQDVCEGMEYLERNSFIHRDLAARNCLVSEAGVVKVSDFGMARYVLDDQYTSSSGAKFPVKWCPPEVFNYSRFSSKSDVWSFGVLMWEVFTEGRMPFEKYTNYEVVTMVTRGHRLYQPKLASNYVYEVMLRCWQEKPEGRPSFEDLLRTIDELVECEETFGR
UniProt P9WI81, sequence (whole entry, looked up): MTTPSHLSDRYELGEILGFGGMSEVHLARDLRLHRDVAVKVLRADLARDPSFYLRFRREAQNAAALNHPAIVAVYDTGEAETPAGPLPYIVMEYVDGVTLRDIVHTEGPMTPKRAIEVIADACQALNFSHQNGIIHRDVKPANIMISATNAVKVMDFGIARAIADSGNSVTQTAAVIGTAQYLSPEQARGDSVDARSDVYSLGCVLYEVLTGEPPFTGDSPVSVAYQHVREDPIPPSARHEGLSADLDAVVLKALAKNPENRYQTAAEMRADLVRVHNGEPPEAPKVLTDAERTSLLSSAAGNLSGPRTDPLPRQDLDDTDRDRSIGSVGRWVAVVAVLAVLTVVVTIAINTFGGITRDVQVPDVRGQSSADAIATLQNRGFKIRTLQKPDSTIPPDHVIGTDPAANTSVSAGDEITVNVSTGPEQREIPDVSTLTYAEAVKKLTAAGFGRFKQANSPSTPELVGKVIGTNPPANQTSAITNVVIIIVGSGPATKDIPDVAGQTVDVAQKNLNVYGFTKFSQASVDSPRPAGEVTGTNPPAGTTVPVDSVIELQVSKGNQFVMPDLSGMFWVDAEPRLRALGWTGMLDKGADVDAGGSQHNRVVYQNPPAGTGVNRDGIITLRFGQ
UniProt Q9Y5S2, sequence (whole entry, looked up): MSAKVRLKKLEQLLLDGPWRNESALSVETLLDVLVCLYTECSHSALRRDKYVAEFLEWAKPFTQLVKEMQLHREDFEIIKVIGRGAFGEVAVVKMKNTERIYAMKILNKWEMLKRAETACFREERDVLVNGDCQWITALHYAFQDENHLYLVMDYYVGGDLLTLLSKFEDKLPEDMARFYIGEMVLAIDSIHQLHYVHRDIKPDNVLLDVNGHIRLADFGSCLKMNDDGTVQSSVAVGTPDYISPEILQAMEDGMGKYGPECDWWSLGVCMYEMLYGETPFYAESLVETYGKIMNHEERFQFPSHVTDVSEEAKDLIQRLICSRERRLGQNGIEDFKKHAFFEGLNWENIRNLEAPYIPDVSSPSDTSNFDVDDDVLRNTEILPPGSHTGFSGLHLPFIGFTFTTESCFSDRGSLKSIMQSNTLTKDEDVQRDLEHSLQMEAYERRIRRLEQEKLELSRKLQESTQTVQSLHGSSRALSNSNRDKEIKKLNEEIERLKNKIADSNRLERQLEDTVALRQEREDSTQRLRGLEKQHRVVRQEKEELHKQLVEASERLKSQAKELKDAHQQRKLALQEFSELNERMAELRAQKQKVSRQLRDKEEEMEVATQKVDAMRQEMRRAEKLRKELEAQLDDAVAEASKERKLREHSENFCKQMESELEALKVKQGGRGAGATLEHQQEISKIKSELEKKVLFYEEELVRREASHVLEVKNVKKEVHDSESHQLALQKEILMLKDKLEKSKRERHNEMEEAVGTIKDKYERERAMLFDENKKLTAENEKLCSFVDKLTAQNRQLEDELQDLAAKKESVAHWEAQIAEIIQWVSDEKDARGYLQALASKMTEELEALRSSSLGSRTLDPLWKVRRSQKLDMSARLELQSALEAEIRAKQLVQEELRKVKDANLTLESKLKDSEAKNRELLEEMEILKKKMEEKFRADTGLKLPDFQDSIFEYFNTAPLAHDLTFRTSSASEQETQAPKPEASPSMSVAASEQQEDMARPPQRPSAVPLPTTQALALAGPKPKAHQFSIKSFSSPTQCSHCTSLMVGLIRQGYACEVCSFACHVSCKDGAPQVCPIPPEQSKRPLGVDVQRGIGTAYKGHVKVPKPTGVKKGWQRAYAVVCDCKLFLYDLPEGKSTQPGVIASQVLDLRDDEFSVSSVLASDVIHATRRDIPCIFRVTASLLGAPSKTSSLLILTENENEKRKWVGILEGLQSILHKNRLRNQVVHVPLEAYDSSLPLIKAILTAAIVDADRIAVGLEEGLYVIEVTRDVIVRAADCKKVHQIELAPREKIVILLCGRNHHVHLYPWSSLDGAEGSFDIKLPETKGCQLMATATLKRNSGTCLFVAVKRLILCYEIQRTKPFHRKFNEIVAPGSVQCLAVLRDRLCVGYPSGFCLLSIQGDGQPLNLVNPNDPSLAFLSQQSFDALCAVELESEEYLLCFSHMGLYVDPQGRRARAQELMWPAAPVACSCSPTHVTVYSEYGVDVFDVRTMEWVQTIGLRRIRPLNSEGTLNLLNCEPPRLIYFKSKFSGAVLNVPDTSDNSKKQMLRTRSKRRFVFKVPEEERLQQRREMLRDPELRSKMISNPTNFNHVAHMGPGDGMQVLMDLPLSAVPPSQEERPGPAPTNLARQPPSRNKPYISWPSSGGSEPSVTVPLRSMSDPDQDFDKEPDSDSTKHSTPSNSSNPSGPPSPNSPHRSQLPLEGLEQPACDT
UniProt P62344, sequence (whole entry, looked up): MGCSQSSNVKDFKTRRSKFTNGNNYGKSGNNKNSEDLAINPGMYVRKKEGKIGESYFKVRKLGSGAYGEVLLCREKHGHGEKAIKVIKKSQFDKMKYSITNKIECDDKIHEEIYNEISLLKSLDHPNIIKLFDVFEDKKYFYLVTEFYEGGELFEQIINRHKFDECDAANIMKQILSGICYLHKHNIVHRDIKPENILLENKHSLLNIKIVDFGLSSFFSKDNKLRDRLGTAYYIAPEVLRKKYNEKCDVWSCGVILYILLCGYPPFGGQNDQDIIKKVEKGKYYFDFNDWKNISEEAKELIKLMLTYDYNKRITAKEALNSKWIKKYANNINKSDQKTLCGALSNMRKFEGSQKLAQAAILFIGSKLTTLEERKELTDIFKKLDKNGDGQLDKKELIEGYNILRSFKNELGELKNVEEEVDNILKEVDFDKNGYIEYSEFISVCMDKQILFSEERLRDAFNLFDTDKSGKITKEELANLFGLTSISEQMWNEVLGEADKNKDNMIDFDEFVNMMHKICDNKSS

Series 1 — technique: CCK-8
SMILES: CC(C)S(=O)(=O)c1ccc2nccc(Nc3ccc4sc(C5CCCC5)nc4c3)c2c1.Cl
cell line | conditions | survival
L929 RIPK3-/- reexpressing RIPK3 K51A/R69H | 6.25 µM, together with: zVAD | 102% and 85.7% and 95.3% and 97.9%
L929 RIPK3-/- reexpressing RIPK3 K51A | 25 µM | 91.2% and 109% and 93.1% and 105%
L929 RIPK3-/- reexpressing RIPK3 K51A | 6.25 µM, together with: zVAD | 102% and 96.8% and 100% and 93.2% and 97.9%
L929 RIPK3-/- reexpressing RIPK3 K51A/R69H | 25 µM, together with: zVAD | 62.1% and 92.4% and 66% and 61.6%

Series 2 — SMILES: [N-]=[N+]=CC(=O)CC[C@H](N)C(=O)O; species: C57BL/6 CES1-/- mouse, both sexes; route: intravenous; dose: 1 mg/kg
conditions | body weight
day 14 | 83% and 80% and 74% and 82% and 85% and 87% and 73%
day 7 | 100%
day 8 | 105% and 100% and 104% and 97%

Mixed results
SMILES | target | assay | conditions | how to read | endpoint | result
CN[C@@H]1C[C@H]2O[C@@](C)([C@@H]1OC)n1c3ccccc3c3c4c(c5c6ccccc6n2c5c31)C(=O)NC4 | TEC (Homo sapiens, UniProt P42680) | enzyme activity, inhibitor | 0.5 µM | baseline: control | remaining activity | 91.1% and 106%
COc1ccc2cc(OCC3(C(=O)O)CN(C(=O)c4ccc(F)cc4)C3)ccc2c1 | pknB (Mycobacterium tuberculosis, UniProt P9WI81) | cell-free assay, competition with immobilised ligand | 1 µM |  | remaining binding | 88%
O=c1[nH]c2ccccc2n1C1CCN(Cc2ccc(-c3[nH]c4cc5ncnc5cc4nc3-c3ccccc3)cc2)CC1 | CDC42BPB (Homo sapiens, UniProt Q9Y5S2) | enzyme activity | 0.5 µM |  | remaining activity | 101%
C[C@@]1(Cc2ccc(C#N)cc2)C(=O)N(c2cc(Cl)cc(Cl)c2)c2ncc(C(=O)NC3(c4nc(C5CCC5)no4)CC3)n21 | CDPK1 (Plasmodium falciparum, UniProt P62344) | cell-free assay, competition with immobilised ligand | 1 µM |  | remaining binding | 100%

Repeated from above (mixed results):
SMILES | target | assay | conditions | how to read | endpoint | result
C[C@@]1(Cc2ccc(C#N)cc2)C(=O)N(c2cc(Cl)cc(Cl)c2)c2ncc(C(=O)NC3(c4nc(C5CCC5)no4)CC3)n21 | CDPK1 (Plasmodium falciparum, UniProt P62344) | cell-free assay, competition with immobilised ligand | 1 µM |  | remaining binding | 100%
